{"data": "Assay results collected from several papers", "note": "Every numbered part comes from another study and shows a few of its results, in no order. Several values in a cell are separate wells, animals, samples, runs or records. Changes are numbered by the printed parent chain."}
{"data": "Series 1", "target": "CRIPT, C-terminal peptide", "technique": "DHFR complementation, deep sequencing", "medium": "yeast", "setting": "single substitutions, model-inferred values", "reference": "wild type", "direction": "higher = weaker binding", "starting sequence": "ERBIN, PDZ domain 1 (human); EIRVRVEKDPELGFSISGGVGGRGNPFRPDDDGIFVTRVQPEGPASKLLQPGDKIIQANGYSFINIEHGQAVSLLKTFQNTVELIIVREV; partner TKNYKQTSV"}
{"Variant": "D9M", "binding free energy change": "0.069 kcal/mol"}
{"Variant": "E89D", "binding free energy change": "0.00299 kcal/mol"}
{"Variant": "H68L", "binding free energy change": "1.14 kcal/mol"}
{"Variant": "G33Q", "binding free energy change": "1.13 kcal/mol"}
{"Variant": "E42Q", "binding free energy change": "0.0946 kcal/mol"}
{"Variant": "V20C", "binding free energy change": "0.143 kcal/mol"}
{"Variant": "L75Y", "binding free energy change": "1.03 kcal/mol"}
{"data": "Series 2", "target": "CCND2, cyclin fold, Cln2 fusion (human)", "technique": "yeast growth competition, sequencing", "medium": "yeast", "setting": "weak parent motif", "reference": "not given", "direction": "higher = stronger binding", "starting sequence": "BRCA2 docking peptide (human); PSIKRNLLNEFDR; partner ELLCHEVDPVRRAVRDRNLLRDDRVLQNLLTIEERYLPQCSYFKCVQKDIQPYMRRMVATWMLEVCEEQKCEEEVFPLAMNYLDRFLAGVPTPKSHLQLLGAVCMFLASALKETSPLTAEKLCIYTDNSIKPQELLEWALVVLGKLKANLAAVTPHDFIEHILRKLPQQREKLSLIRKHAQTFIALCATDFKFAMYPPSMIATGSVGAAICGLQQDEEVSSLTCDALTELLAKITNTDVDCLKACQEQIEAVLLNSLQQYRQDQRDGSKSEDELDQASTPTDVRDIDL"}
{"Variant": "K4V", "normalised enrichment score": 0.0943}
{"Variant": "P1C", "normalised enrichment score": 0.367}
{"Variant": "P1V", "normalised enrichment score": 0.175}
{"Variant": "I3Y", "normalised enrichment score": 0.36}
{"Variant": "R5A L7A", "normalised enrichment score": 0.141}
{"Variant": "D12E", "normalised enrichment score": 0.134}
{"Variant": "N9W", "normalised enrichment score": 0.37}
{"Variant": "N9M", "normalised enrichment score": -0.149}
{"Variant": "R13G", "normalised enrichment score": 0.145}
{"data": "Series 3", "target": "Histone acetyltransferase KAT6A, both winged helices, GST fusion (KAT6A, Homo sapiens, UniProt Q92794, residues 1-181)", "technique": "protein binding microarray", "molecule type": "double-stranded DNA, one strand shown", "medium": "in vitro", "tested at": "not given", "setting": "8-mer, flanks averaged, mean of 2 arrays, mostly near background", "reference": "not given", "direction": "higher = stronger binding", "Construct (chain)": "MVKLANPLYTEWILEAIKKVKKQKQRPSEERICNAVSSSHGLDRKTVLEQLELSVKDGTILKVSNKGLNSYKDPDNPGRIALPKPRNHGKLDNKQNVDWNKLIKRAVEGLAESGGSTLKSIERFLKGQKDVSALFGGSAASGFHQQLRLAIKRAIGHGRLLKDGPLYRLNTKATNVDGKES"}
{"Oligonucleotide": "AGACGTTG", "E-score": -0.033}
{"Oligonucleotide": "GCCGGCGA", "E-score": 0.289}
{"Oligonucleotide": "CTACTAGC", "E-score": -0.012}
{"Oligonucleotide": "CGCCTCCG", "E-score": 0.2}
{"Oligonucleotide": "CCGACGCC", "E-score": 0.3}
{"Oligonucleotide": "ACAAGGGC", "E-score": -0.0896}
{"Oligonucleotide": "CAGCCAAA", "E-score": -0.16}
{"Oligonucleotide": "CTTCCGAC", "E-score": 0.115}
{"data": "Single results of other studies"}
{"Substance": "PhoQ, residues 284 288 289 292 302 303 NLCILV", "target": "PhoP, residues 12 14 15 18 19 LWHCS (Escherichia coli, UniProt P23836)", "test": "Sort-seq, refers to: YFP reporter", "system": "E. coli", "setting": "PhoQ-PhoP variant library, together with: 10 µM Mg2+", "how to read": "reference: high Mg2+ state, higher = stronger signaling", "measurement": "fold induction", "result": "10.3 and 13"}
